# Assay results from different studies.
# Compare with care: the assays were run in different laboratories. “And” joins repeats or separate records; there may be more than shown. ± marks the error that the study gave.
Structure (SMILES),assay,test system,conditions,scale,measurement,value
CN[C@@H](C)C(=O)N[C@H]1CN(C(=O)CC(C)C)CC[C@H]2CC[C@@H](C(=O)NC(c3ccccc3)c3ccccc3)N2C1=O,tumour growth inhibition model,"mouse, MDA-MB-231 xenograft",,,tumour apoptosis rate constant,0.00067 h⁻¹
Cl.O=C(c1cc(Cc2n[nH]c(=O)c3ccccc23)ccc1F)N1CC(CNC2CC2)C1,,"athymic nude mouse, sample A ovarian PDX","oral, 25 mg/kg once daily, 63 days",,tumour growth inhibition,133%
COc1nc(-c2cccc(-c3ccccc3)c2C)ccc1CNCCNC(=O)CCCCCCCCCCC(=O)N1CCN(CCNC(=O)c2cc3c(=O)n4cccc(C)c4nc3n(CCc3cccs3)c2=N)CC1,,C57BL/6 mouse B16-F10 tumour,"ip, 10 mg/kg",relative to: vehicle,tumour weight reduction,44%
COc1ccc(S(=O)(=O)ON=C2C=C(C)C(=O)C(C)=C2)cc1,immunohistochemistry,"NU/NU mouse, MDA-MB-468 xenograft",dose not given,relative to: DMSO,tumour H4 acetylation,decreased
O=C(NO)c1ccc(CN(c2cnccn2)c2cnccn2)cc1,,"mouse, B16-F10 tumour",efficacious doses,,tumour acetylated α-tubulin level,increased
COc1c(Cl)cccc1Nc1c(-c2ccncc2OC[C@@H]2COCCO2)[nH]c2c1C(=O)NCC2,,"mouse, NSCLC PDX sample A","oral, 50 mg/kg once daily, day 27, unit not given",relative to: vehicle,tumour weight T/C,0.06
COCc1cc(C(=O)Nc2cc([C@H]3CC[C@@H](OC(=O)NC(C)C)C3)[nH]n2)n(C)n1,,"OVCAR-3 xenograft, NSG mouse","oral twice daily, lowest dose of escalation",,tumour growth inhibition,54%
CC[C@H](C)[C@H](NC(=O)[C@H](CCCCN)NC(=O)[C@@H](NC(=O)[C@H](CCCNC(=N)N)NC(=O)[C@@H](NC(=O)[C@@H](CCCNC(=N)N)NC(=O)[C@@H](CCCNC(=N)N)NC(=O)[C@@H](CCCNC(=N)N)NC(=O)[C@@H](CCCNC(=N)N)NC(=O)[C@@H](CCCNC(=N)N)NC(=O)[C@H](N)CCCNC(=N)N)[C@@H](C)O)[C@@H](C)O)C(=O)N[C@@H](CC(=O)O)C(=O)N[C@@H](Cc1c[nH]c2ccccc12)C(=O)NC(C)(C)C(=O)N[C@@H](CCCCN)C(=O)N[C@H](C(=O)N[C@@H](CC(C)C)C(=O)NC(C)(C)C(=O)N[C@@H](CCCCN)C(=O)NCCCCCC(=O)NCCCC[C@H](NC(=O)CCCCCNC(=O)[C@H](CCCCN)NC(=O)C(C)(C)NC(=O)[C@H](CC(C)C)NC(=O)[C@@H](NC(=O)[C@H](CCCCN)NC(=O)C(C)(C)NC(=O)[C@H](Cc1c[nH]c2ccccc12)NC(=O)[C@H](CC(=O)O)NC(=O)[C@@H](NC(=O)[C@H](CCCCN)NC(=O)[C@@H](NC(=O)[C@H](CCCNC(=N)N)NC(=O)[C@@H](NC(=O)[C@@H](CCCNC(=N)N)NC(=O)[C@@H](CCCNC(=N)N)NC(=O)[C@@H](CCCNC(=N)N)NC(=O)[C@@H](CCCNC(=N)N)NC(=O)[C@@H](CCCNC(=N)N)NC(=O)[C@H](N)CCCNC(=N)N)[C@@H](C)O)[C@@H](C)O)[C@@H](C)CC)[C@@H](C)CC)C(N)=O)[C@@H](C)CC,,"B16-F10, mouse syngeneic melanoma","intravenous, 25 mg/kg, up to 8 days",,tumour growth,inhibited
COc1ccc(F)cc1C(=O)NCc1ccc(-c2nn([C@@H](C)C(F)(F)F)c(N)c2C(N)=O)cc1,,"Rec1 mantle cell lymphoma xenograft, mouse","oral, 50 mg/kg twice daily",,tumour regression,-11%
Cc1nc(N(Cc2ccccc2)c2ccc3c(c2)/C(=C/c2ccccc2)C(=O)N3Cc2ccccc2)c2ccccc2n1 (mixture of isomers),,mouse LLC syngeneic tumour,"ip, 30 mg/kg every two days, 14 days",,tumour weight,0.38 g
C[C@]12CC[C@@H]3c4ccc(O)cc4C[C@@H](CCCCCCCCC[S+]([O-])CCCC(F)(F)C(F)(F)F)[C@H]3[C@@H]1CC[C@@H]2O (stereo partly shown),,female nude mouse LCC2 xenograft,"2.0 mg/kg, day 9, tamoxifen-resistant",,tumour volume,61.9 mm3 and 111 mm3 and 80.9 mm3 and 46.1 mm3 and 75.3 mm3 and 78.5 mm3 and 46.5 mm3
COc1cc2ncnc(Nc3ccc(F)c(Cl)c3)c2cc1OCCCN1CCOCC1,,mouse LLC syngeneic tumour,"ip, 50 mg/kg every two days, 14 days",,tumour weight,0.79 g
CC1(C)C(/C=C/C=C/C=C/C=C2\N(CCCCS(=O)(=O)O)c3ccc4ccccc4c3C2(C)C)=[N+](CCCCS(=O)(=O)[O-])c2ccc3ccccc3c21,,"mouse, MCF10 DCIS.com intraductal xenograft","intravenous, 0.5 mg/kg, 672 h, image-guided surgery",,tumour recurrence rate,100%
C=CC(=O)Nc1cc(Nc2nccc(Nc3cc(Cl)c(F)cc3C(C)(C)O)n2)c(OC)cc1N1CC[C@@H](N(C)C)C1,,"NCI-H2073 parental, EGFR wild type, BALB/c nude mouse, NCI-H2073 xenograft","50 mg/kg twice daily, 21 days",,tumour growth inhibition,108%
CC1(C)CN(CCCCC(=O)N[C@H](Cc2ccccc2)C(=O)N[C@H](Cc2ccccc2)C(=O)N[C@@H](CCCCNC(=O)CCCCCCC(=O)NCCCC[C@H](NC(=O)N[C@@H](CCC(=O)O)C(=O)O)C(=O)O)C(=O)O)CC[N]2CC(C)(C)[S][Tc]2(=[O])[S]1 (stereo partly shown) [technetium-99m labelled],SPECT/PET imaging,"mouse, subcutaneous LNCaP tumour, tumour","dose not given, 4 h post-injection",,tumour uptake,decreased
C=CCn1c(=O)c2cnc(Nc3ccc(N4CCN(C)CC4)cc3)nc2n1-c1ccc2c(n1)[C@@](O)(CC)CC2,,"BALB/c nude mouse, DU-145 xenograft","oral, 80 mg/kg, 5 d on 2 d off ×4, day 30",relative to: vehicle,tumour volume difference,768 ± 48.9 mm3

# For quick reference, copied from above:
Structure (SMILES),assay,test system,conditions,scale,measurement,value
C=CCn1c(=O)c2cnc(Nc3ccc(N4CCN(C)CC4)cc3)nc2n1-c1ccc2c(n1)[C@@](O)(CC)CC2,,"BALB/c nude mouse, DU-145 xenograft","oral, 80 mg/kg, 5 d on 2 d off ×4, day 30",relative to: vehicle,tumour volume difference,768 ± 48.9 mm3
C=CC(=O)Nc1cc(Nc2nccc(Nc3cc(Cl)c(F)cc3C(C)(C)O)n2)c(OC)cc1N1CC[C@@H](N(C)C)C1,,"NCI-H2073 parental, EGFR wild type, BALB/c nude mouse, NCI-H2073 xenograft","50 mg/kg twice daily, 21 days",,tumour growth inhibition,108%
COc1c(Cl)cccc1Nc1c(-c2ccncc2OC[C@@H]2COCCO2)[nH]c2c1C(=O)NCC2,,"mouse, NSCLC PDX sample A","oral, 50 mg/kg once daily, day 27, unit not given",relative to: vehicle,tumour weight T/C,0.06
